Assay results from different studies.
Each numbered part is a random draw from the data of one study; scales do not carry over between parts. Positions count from the first letter of the parent shown.

Block 1
Target: Histone acetyltransferase KAT6A, both winged helices, GST fusion (KAT6A, Homo sapiens, UniProt Q92794, residues 1-181)
Technique: protein binding microarray
Form: double-stranded DNA, one strand shown
Sample: in vitro
Concentration: not given
Setting: 8-mer, flanks averaged, mean of 2 arrays, mostly near background
Reference: not given
Direction: higher = stronger binding
Residues (chain): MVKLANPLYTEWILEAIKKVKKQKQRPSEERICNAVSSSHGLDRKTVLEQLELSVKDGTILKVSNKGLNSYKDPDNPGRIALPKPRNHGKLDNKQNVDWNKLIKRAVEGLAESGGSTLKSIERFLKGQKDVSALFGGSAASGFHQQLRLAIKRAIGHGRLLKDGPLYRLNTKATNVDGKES
Sequence | E-score
CGAGTACC | 0.0946
GAAAGAGC | -0.0147
CACGCTAC | 0.14
GGCAGCAA | -0.0836
ATCACGAA | -0.0959
CGTTCGTA | 0.121
ATTGTTTC | 0.0886
GGTTACTA | 0.00949
ATGCCCGA | -0.0883
CCAGGGAG | -0.207
GGGGCGCA | 0.117
TAGATCAA | -0.278
AAGTGGAG | -0.177

Block 2
Target: Ras GTPase-activating protein-binding protein 1, full length (G3BP1, Homo sapiens, UniProt Q13283)
Sequence of UniProt Q13283 (whole entry, looked up): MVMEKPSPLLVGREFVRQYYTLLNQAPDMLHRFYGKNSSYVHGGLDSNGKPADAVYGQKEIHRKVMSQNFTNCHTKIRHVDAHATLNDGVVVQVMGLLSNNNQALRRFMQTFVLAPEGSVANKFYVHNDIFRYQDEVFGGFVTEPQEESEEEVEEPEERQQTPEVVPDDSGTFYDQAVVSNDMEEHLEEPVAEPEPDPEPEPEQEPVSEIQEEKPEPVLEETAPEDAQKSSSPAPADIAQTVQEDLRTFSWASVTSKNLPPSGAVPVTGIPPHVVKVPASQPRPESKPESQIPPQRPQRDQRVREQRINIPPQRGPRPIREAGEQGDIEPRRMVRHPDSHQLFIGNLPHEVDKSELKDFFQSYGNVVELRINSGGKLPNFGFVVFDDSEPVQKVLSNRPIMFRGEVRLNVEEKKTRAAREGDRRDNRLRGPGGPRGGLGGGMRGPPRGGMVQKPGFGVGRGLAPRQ
Technique: RNA Bind-n-Seq
Form: RNA
Sample: in vitro
Concentration: 200 nM
Setting: whole 134-nt RNA, ends assumed
Added: 150 mM LiCl
Reference: input library
Direction: higher = stronger binding
Library: 7-deaza-guanosine replaces G
Constant ends, left off below: GGGAGUUCUACAGUCCGACGAUC … UGGAAUUCUCGGGUGUCAAGG
Sequence | log2 enrichment
CAAGUCCUGUGCUACACAUCGUAUGUACCGAAUCGGAAAAAAAGGAAAGGAAAGGAAAGUAUUAUGUUACGCCGUUCGGAUCUGCACUUC | -0.662
GUCCUGUGCUACACAUCGUAUGUACCGAAUCAAAUUUAAACCCCCAAAUUUUUUUAAAAAAGUAUUAUGUUACGCCGUUCGGAUCUGCAC | 0.581
CUCAAGUCCUGUGCUACACAUCGUAUGUACCGAAUCGGAAGGAAGGGGAAGGGGAAAGUAUUAUGUUACGCCGUUCGGAUCUGCACUUCC | 0.102
CAAGUCCUGUGCUACACAUCGUAUGUACCGAAUCGGGAAAGGGAAAGGGGAAAGGGAAAGUAUUAUGUUACGCCGUUCGGAUCUGCACUU | -0.734
CAAGUCCUGUGCUACACAUCGUAUGUACCGAAUCGGGAAAGGAAAGGGAAAGGGGAAAGUAUUAUGUUACGCCGUUCGGAUCUGCACUUC | -0.0782
GUCCUGUGCUACACAUCGUAUGUACCGAAUCGGGGAGGGGAAAAAGGGGUUUUUGGGGAAAGUAUUAUGUUACGCCGUUCGGAUCUGCAC | 0.221
AGUCCUGUGCUACACAUCGUAUGUACCGAAUCGGAAAAAAAGGAAAGGUUUUUUUGGAAAGUAUUAUGUUACGCCGUUCGGAUCUGCACU | -2.46
UCCUGUGCUACACAUCGUAUGUACCGAAUCGGGGAAAGGGGUUUUUGGGGUUUUUGGGGAAAGUAUUAUGUUACGCCGUUCGGAUCUGCA | -0.0381
AAGGCACGUAAGUUUAAGCUUUUUUUUUUUUUAAGUUAAUGGGAAAAAUUUGAGACGCAAUACCAAUACUUAGGAUUUUGGUCUUGGUGU | 0.561
UCCUGUGCUACACAUCGUAUGUACCGAAUCGGGUUUUUGGGUUUUUGGGAAAAAAAGGGAAAGUAUUAUGUUACGCCGUUCGGAUCUGCA | -0.0405
CACAGACAACUCGCACCCACACAGACACAGAGGGAAGGGGUUGGGAUGGGGACAGGGUGCACAGCAGGGCGGGGUAGGACCCCAGCCCCU | -0.00536

Block 3
Target: CCND1, cyclin fold, Cln2 fusion (human)
Technique: yeast growth competition, sequencing
Sample: yeast
Setting: strong parent motif
Reference: not given
Direction: higher = stronger binding
Starting sequence: PKN2 docking peptide (human); VSAVRKLDFSDTM
Change | normalised enrichment score
VSAVRKLDKSDTM [F9K] | -0.00877
VSAVCKLDFSDTM [R5C] | 3.26
VSAVFKLDFSDTM [R5F] | 0.953
VSAVDKLDFSDTM [R5D] | 0.862
VSAVRKLDFSPTM [D11P] | 4.93
VSAVRKLDFSTTM [D11T] | 4.96
VSAVPKLDFSDTM [R5P] | 0.491
VCAVRKLDFSDTM [S2C] | 4.78
VSAWRKLDFSDTM [V4W] | 0.414
VSAVRKPDFSDTM [L7P] | -0.139

Other studies, line by line
Molecule | target | assay | test system | setting | how to read | endpoint | value
PhoQ, residues 284 288 289 292 302 303 ALSMDL | PhoP, residues 12 14 15 18 19 NQFFI (Escherichia coli, UniProt P23836) | Sort-seq, measured: YFP reporter | E. coli | PhoQ-PhoP variant library, added: 10 µM Mg2+ | reference: high Mg2+ state, higher = stronger signaling | fold induction | 14.3

Some of these lines once more (block 1):
Sequence | E-score
GAAAGAGC | -0.0147
ATTGTTTC | 0.0886
CGAGTACC | 0.0946
GGCAGCAA | -0.0836
AAGTGGAG | -0.177
